Measured values pooled from the literature.
Compare with care: the assays were run in different laboratories.
Organism: Escherichia coli

For `CCCCCCCCCCCCCCCC(=O)N(C)[C@H](CO)C(=O)N[C@H](C)C(=O)NCC(=O)N(C)[C@@H]1C(=O)N[C@@H](C)C(=O)N[C@H](C(=O)O)Cc2ccc(O)c(c2)-c2cc1ccc2O[C@@H]1O[C@@H](C)[C@H](O)[C@@H](O)[C@H]1O`, MIC read “inactive” (broth microdilution; MG1655; cation-adjusted Mueller Hinton II).
For `CCn1cc(C(=O)NCCCCCC(=O)N[C@@H](CCCNC(=N)N)C(=O)N[C@@H](CC(C)C)C(=O)N[C@@H](CC(C)C)C(=O)N[C@@H](CCCNC(=N)N)C(=O)N[C@@H](CCCNC(=N)N)C(=O)N[C@@H](CC(C)C)C(=O)N[C@@H](CC(C)C)C(=O)N[C@@H](CCCNC(=N)N)C(N)=O)c(=O)c2cc3c(cc21)OCO3`, the MIC was 34 µM (broth microdilution; ATCC 25922; 24 h, 37 °C).
For `c1ccc(CCNC2CCCc3c2[nH]c2ccc(C4CCCCC4)cc32)cc1` (centres unmarked), the MIC was over 41 µg/mL (microbial growth, broth dilution; ATCC11775).
The MIC of `CCCCCCCCCCCCCCCCCCSCC1OC(OC2C(N)CC(N)C(OC3OC(CN)C(O)CC3N)C2O)C(O)C(N)C1O` (centres unmarked) is reported as over 150 µg/mL (BL21(DE3)).
The MIC of `CC[C@H](C)[C@H](NC(=O)[C@H](CCCCN)NC(=O)[C@H](CC(N)=O)NC(=O)[C@H](Cc1c[nH]c2ccccc12)NC(=O)[C@H](Cc1ccccc1)NC(=O)[C@H](CCCCN)NC(=O)[C@H](CCCNC(=N)N)NC(=O)[C@H](CC(C)C)NC(=O)[C@H](Cc1c[nH]c2ccccc12)NC(=O)[C@H](CCCCN)NC(=O)[C@H](CCCNC(=N)N)NC(=O)[C@H](CC(C)C)NC(=O)CNC(C)=O)C(=O)N[C@@H](CCCCN)C(=O)N[C@@H](CCCNC(=N)N)C(N)=O` is reported as 3.12 µM (broth microdilution; ATCC 25922).
`Cc1cc(N)c2cc(NC(=O)c3ccc4c(-c5cccc(N)c5)cccc4c3)ccc2n1` gave an MIC of 12.5 µM (ΔtolC efflux-deficient).
With `CC[C@H](C)[C@H](NC(=O)[C@H](Cc1ccc(O)cc1)NC(=O)[C@@H](NC(=O)[C@@H]1C[C@@H](O)CN1C(=O)[C@H](CCCNC(=N)N)NC(=O)[C@H](CC(N)=O)NC(=O)[C@H](CC(N)=O)NC(=O)[C@H](CCCN)N=C(N(C)C)N(C)C)C(C)C)C(=O)N1C[C@H](O)C[C@H]1C(=O)N[C@@H](CCCNC(=N)N)C(=O)N1C[C@H](O)C[C@H]1C(=O)N[C@@H](CCCNC(=N)N)C(=O)N1C[C@H](O)C[C@H]1C(=O)N1C[C@H](O)C[C@H]1C(=O)N[C@@H](Cc1c[nH]cn1)C(=O)N1C[C@H](O)C[C@H]1C(=O)N[C@@H](CCCNC(=N)N)C(=O)N[C@@H](CC(C)C)C(=O)O` the MIC was 10 µM (broth microdilution; BL21; overnight, 37 °C).
`CC[C@H](C)[C@H](N)C(=O)N[C@@H](CC(C)C)C(=O)N[C@@H](CO)C(=O)N[C@@H](C)C(=O)N[C@@H](C)C(=O)N[C@@H](Cc1ccc(O)cc1)C(=O)N[C@@H](CO)C(=O)NCC(=O)N[C@H](C(=O)N[C@H](C(=O)N[C@@H](CO)C(=O)N[C@@H](CC(C)C)C(=O)N[C@H](C(=O)NCCCCCC(=O)N[C@@H](Cc1c[nH]c2ccccc12)C(N)=O)[C@@H](C)CC)[C@@H](C)CC)[C@@H](C)CC` has an MIC of 5 to 10 µM (clinical pb3).
For `CCCCCCCCCCCCCCCCCC(=O)N[C@@H](CCCCN)C(=O)N[C@@H](CCCCN)C(=O)N[C@@H](CCCNC(=N)N)C(=O)N[C@@H](CCCCN)C(=O)N[C@@H](CCCCN)C(N)=O`, the MIC was 16 µg/mL (broth microdilution; K12, water pH 7; 18 h, 37 °C).
For `CC[C@H](C)[C@@H]1NC(=O)CNC(=O)[C@H](CCCCN)NC(=O)[C@H](C)NC(=O)[C@H](CCC(=O)O)NC(=O)[C@H](Cc2ccccc2)NC(=O)[C@H](CO)NC(=O)[C@H](CC(C)C)NC(=O)[C@H](C(C)C)NC(=O)[C@H](CC(=O)O)NC(=O)[C@@H](NC(=O)[C@@H](NC(=O)[C@@H](N)C(C)C)[C@@H](C)O)CSSC[C@@H]2NC(=O)[C@H](CO)NC(=O)CNC(=O)CNC(=O)[C@H](CCCCN)NC(=O)[C@H](CCCCN)NC(=O)[C@H](CCCNC(=N)N)NC(=O)[C@H](CC(C)C)NC(=O)[C@H](C)NC(=O)[C@H]([C@@H](C)CC)NC(=O)[C@H](C)NC(=O)[C@H](Cc3c[nH]cn3)NC(=O)[C@H](CC(C)C)NC(=O)[C@H](C)NC(=O)[C@H](CSSC[C@@H](C(=O)N[C@H](C(=O)N[C@@H](C)C(=O)N[C@@H](CCCNC(=N)N)C(=O)N[C@@H](CC(N)=O)C(=O)O)C(C)C)NC(=O)[C@H](C(C)C)NC(=O)CNC(=O)[C@H](CC(N)=O)NC(=O)[C@H](CCC(N)=O)NC2=O)NC(=O)[C@H](C)NC(=O)[C@H](CO)NC(=O)[C@H](Cc2c[nH]cn2)NC(=O)[C@H](CC(N)=O)NC(=O)[C@H](C(C)C)NC(=O)[C@H](C)NC1=O`, the MIC was over 100 µM (broth microdilution; KCTC 1682; 16 h, 37 °C).
For `CC(C)C[C@@H]1NC(=O)[C@H](C)NC(=O)[C@H](NC(=O)[C@H](CO)NC(=O)[C@@H](CCCCN)NC(=O)[C@@H](CC(C)C)NC(=O)[C@@H](N)Cc2ccccc2)[C@H](C(N)=O)OC(=O)[C@H](C)NC1=O`, the MIC was over 32 µg/mL (ATCC 10798; TFA salt).
With `CC[C@H](C)[C@H](NC(=O)[C@H](C)NC(=O)[C@@H]1CCCN1C(=O)[C@H](CC(C)C)NC(=O)[C@H](Cc1ccccc1)NC(=O)[C@H](CCCCN)NC(=O)[C@H](CCSC)NC(=O)[C@H](C)NC(=O)[C@H](CCSC)NC(=O)[C@H](CCCCN)NC(=O)[C@H](C)NC(=O)[C@@H](NC(=O)[C@@H](NC(=O)CNC(=O)[C@H](Cc1ccccc1)NC(=O)[C@@H](N)Cc1ccccc1)C(C)C)[C@@H](C)CC)C(=O)N[C@@H](Cc1ccccc1)C(=O)N[C@@H](CCCCN)C(=O)N[C@@H](CCC(N)=O)C(=O)N[C@H](C(=O)N[C@@H](CCC(N)=O)C(=O)N[C@@H](CCCCN)C(=O)N[C@@H](CCCCN)C(=O)N[C@@H](CCCNC(=N)N)C(=O)N[C@@H](CCCCN)C(N)=O)[C@@H](C)CC` the MIC was 6.25 µM (broth microdilution; ATCC 35218).
The MIC of `Cc1c2oc3c(C)ccc(C(=O)N[C@@H]4C(=O)N[C@H](C(C)C)C(=O)N5[C@@H](C)CC[C@H]5C(=O)N(C)CC(=O)N(C)[C@@H](C(C)C)C(=O)O[C@@H]4C)c3nc-2c(C(=O)N[C@@H]2C(=O)N[C@H](C(C)C)C(=O)N3CC(=O)C[C@H]3C(=O)N(C)CC(=O)N(C)[C@@H](C)C(=O)O[C@@H]2C)c(N)c1=O` is reported as over 9.57 µg/mL (broth microdilution; ATCC 12435; 16 to 48 h).
`CC[C@H](C)[C@H](NC(=O)[C@@H]1CCCN1C(=O)[C@H](CCCNC(=N)N)NC(=O)[C@@H]1CCCN1C(=O)[C@H](Cc1c[nH]cn1)NC(=O)[C@H](CO)NC(=O)[C@@H](NC(=O)[C@@H]1CCCN1C(=O)[C@H](CCCNC(=N)N)NC(=O)[C@@H]1CCCN1C(=O)[C@H](CO)NC(=O)[C@H](Cc1ccc(O)cc1)NC(=O)[C@@H]1CCCN1C(=O)[C@H](CCCNC(=N)N)NC(=O)[C@@H]1CCCN1C(=O)[C@H](CCCCN)NC(=O)CN)[C@@H](C)O)C(=O)N[C@@H](CCCNC(=N)N)C(=O)N[C@H](C(=O)O)C(C)C` has an MIC of 2 µg/mL (BL21(DE3) untransformed, cation-adjusted Mueller-Hinton broth; 37 °C, 25% broth).
`COc1ccc(CCNc2cc(-c3ccccc3)nc3ncnn23)cc1` gave an MIC of over 64 µM (broth microdilution; 3).
`C#CCON=C1C(C)C(c2ccc(C)cc2)OC(c2ccc(C)cc2)C1C` (centres unmarked) has an MIC of 12.5 µg/mL (microbial growth, broth dilution; MTCC443; 24 h).
`CCCCCCSCC1OC(OC2C(N)CC(N)C(OC3OC(CN)C(O)CC3N)C2O)C(O)C(N)C1O` (centres unmarked) has an MIC of over 150 µg/mL (BL21(DE3) Eis-expressing).
With `CC[C@H](C)[C@H](NC(=O)[C@@H](Cc1ccccc1)NC)C(=O)N[C@@H](CO)C(=O)N[C@H](CCCNC(=N)N)C(=O)N[C@@H](C(=O)N[C@H](C(=O)N[C@@H](CO)C(=O)N[C@H]1C(=O)N[C@@H](C)C(=O)N[C@@H](CC(C)C)C(=O)N[C@@H]([C@@H](C)CC)C(=O)O[C@H]1C)[C@@H](C)CC)[C@@H](C)CC` the MIC was over 8 µg/mL (broth microdilution; ATCC 10798, Mueller-Hinton broth; 16 h, 37 °C).
With `CC(C)Oc1ccc(B(O)O)c(F)n1` the MIC was 256 µg/mL (bacterial growth; CTX-M-14 ESBL clinical isolate; cefotaxime alone).
For `CCCCCCCCCCCCCC(=O)N[C@@H](CCCCN)C(=O)N[C@@H](CCCCN)C(=O)N[C@@H](CCCCN)C(=O)N[C@@H](CCCCN)C(=O)N[C@@H](CCCCN)C(N)=O`, the MIC was 32 µg/mL (broth microdilution; K12; 16-24 h, 37 °C, prepared at pH 7).

Repeated from above:
For `CC[C@H](C)[C@@H]1NC(=O)CNC(=O)[C@H](CCCCN)NC(=O)[C@H](C)NC(=O)[C@H](CCC(=O)O)NC(=O)[C@H](Cc2ccccc2)NC(=O)[C@H](CO)NC(=O)[C@H](CC(C)C)NC(=O)[C@H](C(C)C)NC(=O)[C@H](CC(=O)O)NC(=O)[C@@H](NC(=O)[C@@H](NC(=O)[C@@H](N)C(C)C)[C@@H](C)O)CSSC[C@@H]2NC(=O)[C@H](CO)NC(=O)CNC(=O)CNC(=O)[C@H](CCCCN)NC(=O)[C@H](CCCCN)NC(=O)[C@H](CCCNC(=N)N)NC(=O)[C@H](CC(C)C)NC(=O)[C@H](C)NC(=O)[C@H]([C@@H](C)CC)NC(=O)[C@H](C)NC(=O)[C@H](Cc3c[nH]cn3)NC(=O)[C@H](CC(C)C)NC(=O)[C@H](C)NC(=O)[C@H](CSSC[C@@H](C(=O)N[C@H](C(=O)N[C@@H](C)C(=O)N[C@@H](CCCNC(=N)N)C(=O)N[C@@H](CC(N)=O)C(=O)O)C(C)C)NC(=O)[C@H](C(C)C)NC(=O)CNC(=O)[C@H](CC(N)=O)NC(=O)[C@H](CCC(N)=O)NC2=O)NC(=O)[C@H](C)NC(=O)[C@H](CO)NC(=O)[C@H](Cc2c[nH]cn2)NC(=O)[C@H](CC(N)=O)NC(=O)[C@H](C(C)C)NC(=O)[C@H](C)NC1=O`, the MIC was over 100 µM (broth microdilution; KCTC 1682; 16 h, 37 °C).
For `CCn1cc(C(=O)NCCCCCC(=O)N[C@@H](CCCNC(=N)N)C(=O)N[C@@H](CC(C)C)C(=O)N[C@@H](CC(C)C)C(=O)N[C@@H](CCCNC(=N)N)C(=O)N[C@@H](CCCNC(=N)N)C(=O)N[C@@H](CC(C)C)C(=O)N[C@@H](CC(C)C)C(=O)N[C@@H](CCCNC(=N)N)C(N)=O)c(=O)c2cc3c(cc21)OCO3`, the MIC was 34 µM (broth microdilution; ATCC 25922; 24 h, 37 °C).
